Measurements of several laboratories.
Lines come from different studies, so protocols differ. “And” joins repeats or separate records; there may be more than shown. ± gives the spread as reported.

For `DLLQWQTKL`, the reporter activation was 0.17% (Jurkat T cells expressing 1G4 TCR; NFAT-eGFP reporter, flow cytometry; peptide; concentration not given, HLA-A*02:01 NY-ESO system).
`QDEKVKESYV` gave a binding intensity of 0.765 (human MAGI1-3/6 PDZ construct (MBP fusion); automated holdup; peptide, crude extract; concentration not given, uncorrected, unit not given; baseline: biotin control resin, higher = stronger binding).
For `sevelamer carbonate`, the inhibition was -17.9% (NEDD8-cullin 1 interaction; AlphaScreen; 100 µM).
The association constant of `TTFFDYDYGA` is reported as 11000 M⁻¹ (human CCL7; nano-ESI MS; peptide; pH 6.8, CCL7 10 µM).
`GLGQWISGA` has a reporter activation of 0.26% (Jurkat T cells expressing 1G4 TCR; NFAT-eGFP reporter, flow cytometry; peptide; concentration not given, HLA-A*02:01 NY-ESO system).
For `PMESGICTIV`, “normalised SPR binding response” read 23.1 normalised RU (human SCRIB PDZ3-4 tandem (MBP fusion); surface plasmon resonance; peptide; concentration not given; higher = stronger binding).
Under “mRNA level decrease”, `maraviroc` is recorded as 3.94 fold (RAGE (human); qPCR, refers to: RAGE; HBMEC; 2.5 µM, 24 h; baseline: untreated cells).
The inhibition of `colesevelam` is reported as 17.7% (NEDD8-cullin 1 interaction; AlphaScreen; 100 µM).
`GEMVGQARILAQATSDLVNAIKDA`: “rupture force FWHM upper side” 14.1 pN (vinculin head domain Vd1; complex rupture, AFM single-molecule force spectroscopy; peptide; single traces, C-terminal pulling, 800 nm/s).
The inhibition of `DNNHCSWLYGYWEWTLWGED` is reported as > 75% (UltraID biotin ligase, C-terminal fusion; biotinylation activity, inhibitor, streptavidin/HA fluorescence ratio; peptide, HEK-293T; concentration not given, 30 min, with: biotin 50 µM; baseline: control).
`GGWVEKETYY` — result for “normalised SPR binding response”: 0 normalised RU (human SCRIB PDZ3-4 tandem (MBP fusion); surface plasmon resonance; peptide; concentration not given; higher = stronger binding).
`EMIDENRRRVLVKVVLFP` gave an inhibition of > 75% (UltraID biotin ligase, C-terminal fusion; biotinylation activity, inhibitor, streptavidin/HA fluorescence ratio; peptide, HEK-293T; concentration not given, 30 min, with: biotin 50 µM; baseline: control).
`Pam3CSK4` — result for “relative mRNA level”: 2.18 and 1.69 and 2.34 (TLR2; agonist, RT-qPCR, refers to: Marco; BV-2; 1.0 µM; baseline: untreated cells).
The fractional oxidation of `AAASMWR` is reported as 0.396 (MsrA and MsrB; LC-MS/MS; peptide, actinonin-treated Escherichia coli proteome; 20 min, pH 7.5, 37 °C, with: MsrA 0.54 µM, MsrB 2.02 µM).
`KDECVIATEV` gave a binding intensity of -0.181 (human MAGI1-3/6 PDZ construct (MBP fusion); automated holdup; peptide, purified PDZ protein; concentration not given, unit not given; baseline: biotin control resin, higher = stronger binding).
`ILEAAKSIAAATSALVKAASAAQRE`: “rupture force FWHM lower side” 20.5 pN (vinculin head domain Vd1; complex rupture, AFM single-molecule force spectroscopy; peptide; single traces, C-terminal pulling, 800 nm/s).
`Pam2CSK4`: “relative mRNA level” 2.25 and 1.42 and 2.11 (TLR2; agonist, RT-qPCR, refers to: Msr1; BV-2; 1.0 µM; baseline: untreated cells).
For `diazo-2`, “time to peak current after uncaging” read 1.25 ± 0.23 s (cone CNG channel; Morone saxatilis, cone outer segment; 1 mM, mean of seven cells, with: 8-Br-cGMP 15 µM).
For `GSGAGRETEV`, the binding intensity was 0.303 (human MAGI1-2/6 PDZ construct (MBP fusion); automated holdup; peptide, crude extract; concentration not given, corrected by standard peak, unit not given; baseline: biotin control resin, higher = stronger binding).
For `chondroitin sulfate C`, the thermal shift was 2.15 °C (SAR11_0271 Candidatus Pelagibacter; binding, DSF; single replicate screen).
For `ERK2`, the co-IP enrichment was 0 (co-immunoprecipitation; human RBC membrane; DMTMM crosslinker, unit not given, with: Band 3 peptide 1-56 bait; baseline: negative control).
The t1/2 of `EIKYREEV` is reported as 2 h (HLA-B8 (human); complex dissociation; peptide; 37 °C).
`SPMSYGRARA (P453A substitution)`: binding “inhibited” (VSR1 N-terminal domain R95M (Arabidopsis thaliana); pull-down; peptide; concentration not given, pH 7.1).
`GSGAGHETIV` — result for “normalised SPR binding response”: 6.1 normalised RU (human MAGI1-2/6 PDZ construct (MBP fusion); surface plasmon resonance; peptide; concentration not given; higher = stronger binding).
`AAAEGEMK` gave a fractional oxidation of 0.606 (MsrA and MsrB; LC-MS/MS; peptide, actinonin-treated Escherichia coli proteome; 10 min, pH 7.5, 37 °C, with: MsrA 0.54 µM, MsrB 2.02 µM).
With `KPGKGSETVV` the binding intensity was 0.561 (human MAGI1-2/6 PDZ construct (MBP fusion); automated holdup; peptide, crude extract; concentration not given, uncorrected, unit not given; baseline: biotin control resin, higher = stronger binding).
The inhibition of `KLLETRLQTGEKPRLLALVEG` is reported as > 75% (UltraID biotin ligase, C-terminal fusion; biotinylation activity, inhibitor, streptavidin/HA fluorescence ratio; peptide, HEK-293T; concentration not given, 30 min, with: biotin 50 µM; baseline: control).
`hemoglobin alpha` gave a co-IP enrichment of 0.161 (co-immunoprecipitation; human RBC membrane; unit not given, with: Band 3 peptide 1-56 bait; baseline: negative control).
`QSARYRDTEL` gave a binding intensity of -0.0135 (human MAGI1-3/6 PDZ construct (MBP fusion); automated holdup; peptide, crude extract; concentration not given, corrected by standard peak, unit not given; baseline: biotin control resin, higher = stronger binding).
`VVVGAVGVGK`: “relative protein remaining” 1 (HLA class I peptide complex; Western blot; peptide, 293T; 0 h, with: cycloheximide 100 µg/mL; baseline: baseline).
